{"data": "Experimental data of several laboratories", "note": "Numbered parts are unrelated; each lists some results of a single study.", "sequence of UniProt Q01959 (whole entry, looked up)": "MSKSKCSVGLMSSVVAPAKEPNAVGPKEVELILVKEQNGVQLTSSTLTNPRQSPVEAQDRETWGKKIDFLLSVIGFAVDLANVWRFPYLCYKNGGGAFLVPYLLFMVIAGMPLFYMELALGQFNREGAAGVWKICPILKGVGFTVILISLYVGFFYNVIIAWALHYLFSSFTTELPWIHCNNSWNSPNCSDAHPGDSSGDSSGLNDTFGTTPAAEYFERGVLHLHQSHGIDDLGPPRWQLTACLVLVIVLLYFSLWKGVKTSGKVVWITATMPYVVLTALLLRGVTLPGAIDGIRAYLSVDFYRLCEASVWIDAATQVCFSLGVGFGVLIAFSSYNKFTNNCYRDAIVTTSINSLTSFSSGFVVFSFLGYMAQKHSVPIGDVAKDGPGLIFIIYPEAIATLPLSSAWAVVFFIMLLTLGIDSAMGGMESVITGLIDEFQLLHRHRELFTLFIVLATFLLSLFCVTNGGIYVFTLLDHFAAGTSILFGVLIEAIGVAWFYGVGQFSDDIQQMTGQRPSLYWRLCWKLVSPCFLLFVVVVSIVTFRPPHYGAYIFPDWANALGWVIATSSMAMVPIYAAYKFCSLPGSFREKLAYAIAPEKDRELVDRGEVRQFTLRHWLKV", "sequence of UniProt P08908 (whole entry, looked up)": "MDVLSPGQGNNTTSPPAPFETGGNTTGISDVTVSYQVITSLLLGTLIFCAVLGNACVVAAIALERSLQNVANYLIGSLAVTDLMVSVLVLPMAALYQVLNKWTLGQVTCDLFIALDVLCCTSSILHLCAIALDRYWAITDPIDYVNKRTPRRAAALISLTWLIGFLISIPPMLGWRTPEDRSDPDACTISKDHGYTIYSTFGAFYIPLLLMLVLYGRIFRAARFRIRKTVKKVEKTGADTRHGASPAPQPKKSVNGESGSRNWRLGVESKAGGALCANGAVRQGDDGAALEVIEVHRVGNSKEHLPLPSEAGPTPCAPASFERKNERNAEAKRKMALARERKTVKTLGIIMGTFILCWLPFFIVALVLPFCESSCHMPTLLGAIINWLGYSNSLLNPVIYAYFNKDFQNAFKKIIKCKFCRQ", "sequence of UniProt P61075 (whole entry, looked up)": "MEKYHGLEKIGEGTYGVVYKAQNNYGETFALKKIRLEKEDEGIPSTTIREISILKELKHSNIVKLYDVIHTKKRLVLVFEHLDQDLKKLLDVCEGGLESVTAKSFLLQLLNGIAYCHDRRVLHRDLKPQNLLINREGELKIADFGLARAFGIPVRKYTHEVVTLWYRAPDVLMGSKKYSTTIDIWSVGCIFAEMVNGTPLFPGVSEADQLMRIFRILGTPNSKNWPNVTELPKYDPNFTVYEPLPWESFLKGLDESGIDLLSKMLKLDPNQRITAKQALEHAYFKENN", "sequence of UniProt P28335 (whole entry, looked up)": "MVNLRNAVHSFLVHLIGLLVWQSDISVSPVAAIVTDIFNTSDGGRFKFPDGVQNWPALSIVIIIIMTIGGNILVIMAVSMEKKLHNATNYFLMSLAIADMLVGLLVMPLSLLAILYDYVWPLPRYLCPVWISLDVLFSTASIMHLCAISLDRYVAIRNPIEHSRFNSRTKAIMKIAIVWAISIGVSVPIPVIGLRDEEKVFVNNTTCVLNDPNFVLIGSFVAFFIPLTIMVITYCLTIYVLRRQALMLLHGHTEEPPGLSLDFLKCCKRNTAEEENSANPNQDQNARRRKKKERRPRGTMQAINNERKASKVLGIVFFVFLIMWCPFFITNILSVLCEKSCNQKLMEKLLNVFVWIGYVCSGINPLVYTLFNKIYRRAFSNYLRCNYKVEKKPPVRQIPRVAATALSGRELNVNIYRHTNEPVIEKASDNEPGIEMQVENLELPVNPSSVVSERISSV"}
{"data": "Block 1", "target": "panel of 300 human kinases", "concentration": "0.5 µM", "direction": "higher = more selective"}
{"Compound": "COc1ccc2c(c1)/C(=C/c1cnc[nH]1)C(=O)N2", "Gini score": 0.64}
{"Compound": "COC(=O)[C@]1(O)C[C@@H]2O[C@@]1(C)n1c3ccccc3c3c4c(c5c6ccccc6n2c5c31)C(=O)NC4", "Gini score": 0.29}
{"Compound": "CCn1cnc2c(Nc3cccc(Cl)c3)nc(N[C@H]3CCCC[C@H]3N)nc21", "Gini score": 0.63}
{"Compound": "CO[C@@H]1[C@H](N(C)C(=O)c2ccccc2)C[C@H]2O[C@]1(C)n1c3ccccc3c3c4c(c5c6ccccc6n2c5c31)C(=O)NC4", "Gini score": 0.52}
{"Compound": "O=C1Nc2ccc3ncsc3c2/C1=C/c1cnc[nH]1", "Gini score": 0.44}
{"data": "Block 2", "cell line": "HEK-293T/ACE2", "concentration": "10 µM", "time": "16 h", "relative to": "vehicle"}
{"Structure (SMILES)": "C[C@]12C=CC(=O)C=C1CC[C@@H]1[C@@H]2[C@@H](O)C[C@@]2(C)[C@H]1CC[C@]2(O)C(=O)CO", "viability": "104%"}
{"Structure (SMILES)": "CCC(=O)OCC(=O)[C@@]1(OC(=O)CC)[C@@H](C)C[C@H]2[C@@H]3CCC4=CC(=O)C=C[C@]4(C)[C@@]3(F)[C@@H](O)C[C@@]21C", "viability": "101%"}
{"Structure (SMILES)": "CC(=O)N(CC(O)CO)c1c(I)c(C(=O)NCC(O)CO)c(I)c(C(=O)NCC(O)CO)c1I (stereo not drawn)", "viability": "104%"}
{"Structure (SMILES)": "CCC(C)(C)C(=O)O[C@H]1C[C@@H](C)C=C2C=C[C@H](C)[C@H](CC[C@@H]3C[C@@H](O)CC(=O)O3)[C@H]21", "viability": "110%"}
{"Structure (SMILES)": "OCCN1C[C@H](O)[C@@H](O)[C@H](O)[C@H]1CO", "viability": "101%"}
{"Structure (SMILES)": "[H]/N=C(/NCCCCC)N/N=C/c1c[nH]c2ccc(OC)cc12", "viability": "93.4%"}
{"Structure (SMILES)": "Cc1cccn2c(=O)c(-c3nnn[nH]3)cnc12", "viability": "100%"}
{"Structure (SMILES)": "NC(=O)N1c2ccccc2C=Cc2ccccc21", "viability": "99.5%"}
{"Structure (SMILES)": "CC(C)NCC(O)COc1cccc2[nH]ccc12 (stereo not drawn)", "viability": "98.3%"}
{"Structure (SMILES)": "CCCCCOC(=O)Nc1nc(=O)n([C@@H]2O[C@H](C)[C@@H](O)[C@H]2O)cc1F", "viability": "101%"}
{"Structure (SMILES)": "CC(=O)N1CCN(c2ccc(OCC3COC(Cn4ccnc4)(c4ccc(Cl)cc4Cl)O3)cc2)CC1 (stereo not drawn)", "viability": "104%"}
{"Structure (SMILES)": "NC(=O)c1cccnc1", "viability": "101%"}
{"Structure (SMILES)": "Nc1nnc(-c2cccc(Cl)c2Cl)c(N)n1", "viability": "102%"}
{"Structure (SMILES)": "Cc1ncc(CO)c(CO)c1O", "viability": "99.5%"}
{"Structure (SMILES)": "NC(=O)c1cnccn1", "viability": "101%"}
{"Structure (SMILES)": "COc1cc(C(C)=O)ccc1OCCCN1CCC(c2noc3cc(F)ccc23)CC1", "viability": "99.8%"}
{"data": "Block 3", "cell line": "A-375", "concentration": "100 µM", "time": "36 h"}
{"SMILES": "CCNCC(O)c1cccc(O)c1 (stereo not drawn)", "viability": "101%"}
{"SMILES": "CCC(=O)O[C@H]1CC[C@H]2[C@@H]3CC[C@H]4CC(=O)[C@H](C)C[C@]4(C)[C@H]3CC[C@]12C", "viability": "24%"}
{"SMILES": "Cl[C@H]1[C@H](Cl)[C@@H](Cl)[C@@H](Cl)[C@H](Cl)[C@H]1Cl", "viability": "1.2%"}
{"SMILES": "CCCC[N+]1(C)[C@@H]2C[C@@H](OC(=O)[C@H](CO)c3ccccc3)C[C@H]1[C@@H]1O[C@@H]12 (stereo partly drawn)", "viability": "97.4%"}
{"SMILES": "COc1ccc2c(c1)[C@]13CCCC[C@@H]1[C@H](C2)N(C)CC3", "viability": "112%"}
{"SMILES": "COC(=O)Nc1nc2ccccc2[nH]1", "viability": "45.6%"}
{"SMILES": "C[C@]12CCC(=O)C(O)=C1CC[C@@H]1[C@@H]2CC[C@]2(C)C(=O)CC[C@@H]12", "viability": "81.9%"}
{"SMILES": "C[C@]12CCC(=O)C=C1CC[C@@H]1[C@@H]2C(=O)C[C@]2(C)C(=O)CC[C@@H]12", "viability": "96.5%"}
{"data": "Further values, each from its own experiment"}
{"SMILES": "CC(=O)Nc1c(F)cc(C(=O)N[C@H]2CC[C@H](O)CC2)cc1O[C@@H](C)c1ccccc1", "target": "HTR1A (Homo sapiens, UniProt P08908)", "assay": "binding, radioligand binding", "setting": "10 µM", "endpoint": "inhibition", "value": "-8.96%"}
{"SMILES": "C[C@H](c1ccnc(Nc2nc3ccc(-c4cc(N(C)C)ncn4)cc3[nH]2)c1)N1CCN(C(=O)CC(F)(F)F)CC1", "target": "SLC6A3 (Homo sapiens, UniProt Q01959)", "assay": "ligand displacement", "setting": "10 µM", "endpoint": "inhibition", "value": "30.5%"}
{"SMILES": "Nc1cnc(N2CCc3cc(S(=O)(=O)Nc4c(F)cc(Cl)cc4F)cc(N4CCCC4=O)c32)nc1", "target": "CRK2 (Plasmodium falciparum, UniProt P61075)", "assay": "cell-free assay, competition with immobilised ligand", "setting": "1 µM", "endpoint": "remaining binding", "value": "100%"}
{"SMILES": "COCCc1ccc(-c2c(C)nc3c(N4CCOCC4)ccnn23)cn1", "target": "HTR2C (Homo sapiens, UniProt P28335)", "assay": "binding, radioligand binding", "setting": "10 µM", "endpoint": "inhibition", "value": "68.2%"}
{"note": "For quick reference, copied from above (further values, each from its own experiment):"}
{"SMILES": "Nc1cnc(N2CCc3cc(S(=O)(=O)Nc4c(F)cc(Cl)cc4F)cc(N4CCCC4=O)c32)nc1", "target": "CRK2 (Plasmodium falciparum, UniProt P61075)", "assay": "cell-free assay, competition with immobilised ligand", "setting": "1 µM", "endpoint": "remaining binding", "value": "100%"}
{"SMILES": "CC(=O)Nc1c(F)cc(C(=O)N[C@H]2CC[C@H](O)CC2)cc1O[C@@H](C)c1ccccc1", "target": "HTR1A (Homo sapiens, UniProt P08908)", "assay": "binding, radioligand binding", "setting": "10 µM", "endpoint": "inhibition", "value": "-8.96%"}
{"SMILES": "C[C@H](c1ccnc(Nc2nc3ccc(-c4cc(N(C)C)ncn4)cc3[nH]2)c1)N1CCN(C(=O)CC(F)(F)F)CC1", "target": "SLC6A3 (Homo sapiens, UniProt Q01959)", "assay": "ligand displacement", "setting": "10 µM", "endpoint": "inhibition", "value": "30.5%"}
